Results of several laboratories.
Numbered parts are unrelated; each lists some results of a single study. “And” joins repeats or separate records; there may be more than shown.

Sample 1 — method: protein binding microarray; molecule type: double-stranded DNA, one strand shown; matrix: in vitro; concentration: not given; relative to: not given; direction: higher = stronger binding
Target: Histone acetyltransferase KAT6A, winged helix 1, GST fusion (KAT6A, Homo sapiens, UniProt Q92794, residues 1-85)
Setting: 8-mer, flanks averaged, mean of 2 arrays, mostly near background
Target sequence (chain): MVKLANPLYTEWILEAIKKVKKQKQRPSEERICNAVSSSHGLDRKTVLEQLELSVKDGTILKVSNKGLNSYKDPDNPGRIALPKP
`GCGAGTGA` gave an E-score of 0.123.
For `GAGGGAAA`, the E-score was -0.221.
`AAGAGGGT` gave an E-score of -0.124.
With `ACCGCGCT` the E-score was 0.406.
With `CCACACGC` the E-score was 0.0975.
With `CGTGATAA` the E-score was 0.0865.
`ATCTCCGC` has an E-score of 0.088.
`GCCGCCCC` gave an E-score of 0.369.

Sample 2 — method: protein-binding microarray; molecule type: double-stranded DNA, one strand shown; matrix: in vitro; concentration: 940 nM top; setting: 60-bp whole probe; together with: salmon DNA 0.4 mg/ml; relative to: random background probes; direction: higher = stronger binding
Target: Interferon regulatory factor 5, full length, phosphomimetic (IRF5, Homo sapiens, UniProt Q13568-2, residues 1-514, S451D/S453D/S456D/S462D)
`GCCTAGCACTTTACTTTCTTTTTTTCTTTGTGCTAGGTCTTGATTCGCTTGACGCTGCTG` — result for “fitted relative affinity”: 2.94 z-score.
For `GCCTAGCACGAGGAACTGAGTATCGAGACGTGCTAGGTCTTGATTCGCTTGACGCTGCTG`, “fitted relative affinity” read 1.04 z-score.
For `GCCTAGCACGACTGTCTCCTTATCCTGACGTGCTAGGTCTTGATTCGCTTGACGCTGCTG`, “fitted relative affinity” read 0.766 z-score.

Other studies, line by line
PABPC1L2 full length, GST fusion: PABPC1L2, full length, GST fusion (mouse, UniProt A0ABA7IW68)
F2 mature alpha-thrombin: Prothrombin, mature alpha-thrombin (F2, Homo sapiens, UniProt P00734)
`CAGGAUA` gave a 7-mer Z-score of 0.0569 (PABPC1L2 full length, GST fusion; RNAcompete; RNA, in vitro; 20 nM, 7-mer, probes averaged, single round; relative to: mean of 7-mers, higher = stronger binding).
For `GGTTGGTGTGGTTGG (2'F-ANA at 2 3 5 7 11 12 14 15)`, “mean fluorescence intensity” read 55.3 a.u. (F2 mature alpha-thrombin; aptamer microarray, sandwich; DNA with 2'F-ANA, in vitro; 200 nM, whole 15-mer aptamer, many near background, together with: Cy3 exosite-II aptamer, 400 nM; higher = stronger binding).
With `CAGACCC` the 7-mer Z-score was -0.0718 (PABPC1L2 full length, GST fusion; RNAcompete; RNA, in vitro; 20 nM, 7-mer, probes averaged, single round; relative to: mean of 7-mers, higher = stronger binding).
`GGTTGGTGTGGTTGG (2'F-ANA at 3 5 6 9 10 11 14 15)`: “mean fluorescence intensity” 50.3 a.u. (F2 mature alpha-thrombin; aptamer microarray, sandwich; DNA with 2'F-ANA, in vitro; 200 nM, whole 15-mer aptamer, many near background, together with: Cy3 exosite-II aptamer, 400 nM; higher = stronger binding).
The fold induction of `PhoQ, residues 284 288 289 292 302 303 ASTSDA` is reported as 15.9 and 25.6 (PhoP, residues 12 14 15 18 19 LWHCS (Escherichia coli, UniProt P23836); Sort-seq, item: YFP reporter; E. coli; PhoQ-PhoP variant library, together with: 10 µM Mg2+; relative to: high Mg2+ state, higher = stronger signaling).

Repeated from above (sample 1):
`AAGAGGGT` gave an E-score of -0.124.
With `CCACACGC` the E-score was 0.0975.
